{"data": "Measurements collected from several papers", "note": "Each numbered part is a random draw from the data of one study; scales do not carry over between parts.", "UniProt P51668, sequence (whole entry, looked up)": "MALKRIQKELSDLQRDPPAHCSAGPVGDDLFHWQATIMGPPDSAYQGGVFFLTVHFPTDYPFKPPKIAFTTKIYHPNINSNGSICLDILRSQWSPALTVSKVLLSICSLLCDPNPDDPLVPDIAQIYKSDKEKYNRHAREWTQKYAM", "UniProt P63146, sequence (whole entry, looked up)": "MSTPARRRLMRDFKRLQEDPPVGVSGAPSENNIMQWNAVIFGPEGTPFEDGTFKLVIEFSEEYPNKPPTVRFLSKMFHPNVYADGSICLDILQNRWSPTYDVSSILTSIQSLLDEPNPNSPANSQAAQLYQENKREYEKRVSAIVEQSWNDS", "UniProt Q9Y385, sequence (whole entry, looked up)": "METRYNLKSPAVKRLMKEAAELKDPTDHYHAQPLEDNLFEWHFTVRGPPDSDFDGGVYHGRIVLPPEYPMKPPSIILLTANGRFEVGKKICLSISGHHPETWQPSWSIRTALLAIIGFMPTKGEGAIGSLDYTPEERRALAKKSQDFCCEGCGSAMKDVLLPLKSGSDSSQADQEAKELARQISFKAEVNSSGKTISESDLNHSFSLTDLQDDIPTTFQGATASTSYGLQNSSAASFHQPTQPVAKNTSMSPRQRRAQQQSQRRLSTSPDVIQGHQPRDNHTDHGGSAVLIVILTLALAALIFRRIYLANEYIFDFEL", "UniProt P62253, sequence (whole entry, looked up)": "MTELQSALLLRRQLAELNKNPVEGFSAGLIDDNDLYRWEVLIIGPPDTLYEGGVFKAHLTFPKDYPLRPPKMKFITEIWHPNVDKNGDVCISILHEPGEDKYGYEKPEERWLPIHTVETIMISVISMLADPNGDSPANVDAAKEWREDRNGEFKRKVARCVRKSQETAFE", "UniProt Q9C0C9, sequence (whole entry, looked up)": "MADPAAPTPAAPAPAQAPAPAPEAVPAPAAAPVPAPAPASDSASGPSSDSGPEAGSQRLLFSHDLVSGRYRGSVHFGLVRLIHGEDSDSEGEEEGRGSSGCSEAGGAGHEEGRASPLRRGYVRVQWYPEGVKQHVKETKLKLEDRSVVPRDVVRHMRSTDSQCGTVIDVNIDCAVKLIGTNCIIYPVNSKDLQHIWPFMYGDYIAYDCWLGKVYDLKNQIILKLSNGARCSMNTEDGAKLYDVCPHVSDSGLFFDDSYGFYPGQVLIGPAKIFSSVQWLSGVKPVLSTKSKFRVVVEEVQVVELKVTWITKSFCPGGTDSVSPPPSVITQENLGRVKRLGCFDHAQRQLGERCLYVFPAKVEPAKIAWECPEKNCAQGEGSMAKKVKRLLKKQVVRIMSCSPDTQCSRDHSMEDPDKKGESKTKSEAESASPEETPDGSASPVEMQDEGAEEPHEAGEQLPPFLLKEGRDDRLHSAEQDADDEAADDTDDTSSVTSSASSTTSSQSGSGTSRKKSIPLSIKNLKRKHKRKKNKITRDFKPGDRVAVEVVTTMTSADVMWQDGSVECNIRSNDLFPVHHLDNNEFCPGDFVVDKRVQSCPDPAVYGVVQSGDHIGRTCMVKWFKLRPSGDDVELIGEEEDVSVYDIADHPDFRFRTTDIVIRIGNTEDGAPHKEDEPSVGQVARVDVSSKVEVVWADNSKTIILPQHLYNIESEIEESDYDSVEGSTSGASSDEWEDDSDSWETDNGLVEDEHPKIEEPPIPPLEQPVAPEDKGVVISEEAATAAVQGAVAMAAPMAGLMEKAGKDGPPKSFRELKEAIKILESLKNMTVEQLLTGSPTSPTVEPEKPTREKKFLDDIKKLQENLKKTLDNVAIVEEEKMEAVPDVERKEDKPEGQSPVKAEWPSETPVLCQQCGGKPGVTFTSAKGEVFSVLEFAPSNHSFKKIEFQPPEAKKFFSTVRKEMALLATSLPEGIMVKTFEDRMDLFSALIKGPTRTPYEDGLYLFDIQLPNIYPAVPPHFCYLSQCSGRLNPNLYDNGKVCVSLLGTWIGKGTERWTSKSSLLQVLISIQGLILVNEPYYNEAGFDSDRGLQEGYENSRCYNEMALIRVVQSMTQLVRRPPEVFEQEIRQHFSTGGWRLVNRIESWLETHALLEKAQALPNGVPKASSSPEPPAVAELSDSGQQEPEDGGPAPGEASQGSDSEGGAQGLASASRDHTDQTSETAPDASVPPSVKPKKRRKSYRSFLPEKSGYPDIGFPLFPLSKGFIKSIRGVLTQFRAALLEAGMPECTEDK", "UniProt Q7Z7E8, sequence (whole entry, looked up)": "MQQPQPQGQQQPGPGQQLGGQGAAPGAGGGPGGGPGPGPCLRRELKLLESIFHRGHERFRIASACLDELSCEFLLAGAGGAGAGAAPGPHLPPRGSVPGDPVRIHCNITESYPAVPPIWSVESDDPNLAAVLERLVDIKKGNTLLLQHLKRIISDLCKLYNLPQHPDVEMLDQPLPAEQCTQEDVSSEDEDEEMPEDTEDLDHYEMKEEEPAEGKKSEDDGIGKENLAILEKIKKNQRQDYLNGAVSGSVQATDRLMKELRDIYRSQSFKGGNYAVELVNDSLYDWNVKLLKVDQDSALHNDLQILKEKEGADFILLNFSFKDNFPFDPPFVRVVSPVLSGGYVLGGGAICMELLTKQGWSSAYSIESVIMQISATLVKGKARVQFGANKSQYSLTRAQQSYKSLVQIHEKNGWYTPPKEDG", "UniProt Q9NPD8, sequence (whole entry, looked up)": "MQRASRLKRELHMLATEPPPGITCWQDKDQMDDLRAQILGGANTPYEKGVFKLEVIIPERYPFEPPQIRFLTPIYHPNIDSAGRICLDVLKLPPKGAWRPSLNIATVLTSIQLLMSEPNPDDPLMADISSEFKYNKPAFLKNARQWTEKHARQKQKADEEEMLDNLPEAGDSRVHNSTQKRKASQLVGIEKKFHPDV", "UniProt P61081, sequence (whole entry, looked up)": "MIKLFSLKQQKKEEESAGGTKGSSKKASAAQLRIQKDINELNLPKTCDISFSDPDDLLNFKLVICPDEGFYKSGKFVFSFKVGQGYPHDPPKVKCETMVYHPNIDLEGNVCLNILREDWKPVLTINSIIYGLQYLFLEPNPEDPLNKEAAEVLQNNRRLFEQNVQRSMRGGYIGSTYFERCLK", "UniProt P68036, sequence (whole entry, looked up)": "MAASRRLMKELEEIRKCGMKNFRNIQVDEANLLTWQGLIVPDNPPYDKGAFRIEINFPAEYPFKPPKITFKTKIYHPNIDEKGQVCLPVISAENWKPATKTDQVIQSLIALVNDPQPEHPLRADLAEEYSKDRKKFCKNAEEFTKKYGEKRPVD", "UniProt Q969T4, sequence (whole entry, looked up)": "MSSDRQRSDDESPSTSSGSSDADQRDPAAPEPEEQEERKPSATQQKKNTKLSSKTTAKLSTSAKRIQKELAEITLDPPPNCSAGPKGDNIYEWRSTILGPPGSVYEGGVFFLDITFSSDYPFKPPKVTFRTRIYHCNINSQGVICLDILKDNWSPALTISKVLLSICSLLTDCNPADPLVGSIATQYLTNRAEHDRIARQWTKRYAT", "UniProt Q712K3, sequence (whole entry, looked up)": "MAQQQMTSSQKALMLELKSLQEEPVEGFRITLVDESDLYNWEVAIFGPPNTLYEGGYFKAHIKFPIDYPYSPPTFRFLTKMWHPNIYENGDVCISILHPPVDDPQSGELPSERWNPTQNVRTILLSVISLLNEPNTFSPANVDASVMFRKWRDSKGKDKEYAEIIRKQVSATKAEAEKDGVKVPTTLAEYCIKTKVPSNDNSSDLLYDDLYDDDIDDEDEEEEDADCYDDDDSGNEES", "UniProt Q9H832, sequence (whole entry, looked up)": "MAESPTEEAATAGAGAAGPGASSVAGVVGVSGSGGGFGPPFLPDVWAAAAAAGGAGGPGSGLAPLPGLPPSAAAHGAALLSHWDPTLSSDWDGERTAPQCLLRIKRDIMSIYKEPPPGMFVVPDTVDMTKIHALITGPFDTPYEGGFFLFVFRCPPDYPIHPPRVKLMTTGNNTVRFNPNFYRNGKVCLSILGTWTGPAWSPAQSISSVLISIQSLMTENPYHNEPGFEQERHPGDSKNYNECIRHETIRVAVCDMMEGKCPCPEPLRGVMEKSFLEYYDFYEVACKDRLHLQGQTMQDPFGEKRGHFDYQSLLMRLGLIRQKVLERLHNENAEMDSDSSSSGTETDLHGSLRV", "UniProt O00762, sequence (whole entry, looked up)": "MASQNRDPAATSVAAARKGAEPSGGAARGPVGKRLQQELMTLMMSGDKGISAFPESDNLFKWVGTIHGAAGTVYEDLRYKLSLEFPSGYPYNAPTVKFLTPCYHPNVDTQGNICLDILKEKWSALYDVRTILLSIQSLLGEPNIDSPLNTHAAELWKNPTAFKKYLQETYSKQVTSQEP", "UniProt Q8N2K1, sequence (whole entry, looked up)": "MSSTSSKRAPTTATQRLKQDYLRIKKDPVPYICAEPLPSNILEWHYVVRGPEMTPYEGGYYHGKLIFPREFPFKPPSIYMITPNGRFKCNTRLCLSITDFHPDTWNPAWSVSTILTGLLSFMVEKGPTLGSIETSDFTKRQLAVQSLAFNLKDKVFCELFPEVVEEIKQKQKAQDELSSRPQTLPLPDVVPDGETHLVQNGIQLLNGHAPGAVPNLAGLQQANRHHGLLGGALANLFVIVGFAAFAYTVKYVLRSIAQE"}
{"data": "Sample 1", "target": "Ras GTPase-activating protein-binding protein 1, full length (G3BP1, Homo sapiens, UniProt Q13283)", "technique": "RNA Bind-n-Seq", "molecule type": "RNA", "matrix": "in vitro", "concentration": "200 nM", "setting": "whole 134-nt RNA, ends assumed", "added": "150 mM LiCl", "relative to": "input library", "direction": "higher = stronger binding", "library": "7-deaza-guanosine replaces G", "all sequences stand within": "GGGAGUUCUACAGUCCGACGAUC … UGGAAUUCUCGGGUGUCAAGG", "UniProt Q13283, sequence (whole entry, looked up)": "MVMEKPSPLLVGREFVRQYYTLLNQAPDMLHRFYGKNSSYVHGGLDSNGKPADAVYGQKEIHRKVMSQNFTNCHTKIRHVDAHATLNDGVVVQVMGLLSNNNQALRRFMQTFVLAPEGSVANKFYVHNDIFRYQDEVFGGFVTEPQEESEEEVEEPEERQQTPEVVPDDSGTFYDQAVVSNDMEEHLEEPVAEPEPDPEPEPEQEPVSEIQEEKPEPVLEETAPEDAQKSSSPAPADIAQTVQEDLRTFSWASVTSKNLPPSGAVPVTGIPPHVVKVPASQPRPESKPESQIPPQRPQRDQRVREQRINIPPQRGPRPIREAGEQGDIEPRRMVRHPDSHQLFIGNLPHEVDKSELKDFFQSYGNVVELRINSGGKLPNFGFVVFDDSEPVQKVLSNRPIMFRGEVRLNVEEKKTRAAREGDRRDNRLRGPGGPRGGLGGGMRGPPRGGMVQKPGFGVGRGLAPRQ"}
{"Oligonucleotide": "UCAAGUCCUGUGCUACACAUCGUAUGUACCGAAUCGGGGAAGGGGAAGGAAGGGAAAGUAUUAUGUUACGCCGUUCGGAUCUGCACUUCC", "log2 enrichment": -0.638}
{"Oligonucleotide": "UCCUGUGCUACACAUCGUAUGUACCGAAUCGGGAAAAAAAGGGAAAGGGAAAAAAAGGGAAAGUAUUAUGUUACGCCGUUCGGAUCUGCA", "log2 enrichment": 0.443}
{"Oligonucleotide": "UUGUGAUUAAGAUUUGUUCUUUUUCUCCCCUCUCUAUAGGAAGAUGAUCCCUAUGAUCUUGAAGAUGUUUCUGCACAGAAAUGAGGGAAA", "log2 enrichment": 0.204}
{"Oligonucleotide": "UGGCCCUGGUGGCAUGCGGGGAGGAAGAGGUGGCCUCAUGGAUCGUGGUGAUCCCGGUGGAAUGUUCAGAGGUGGCCGUGGUGGAGACAG", "log2 enrichment": 0.0462}
{"Oligonucleotide": "AGUCCUGUGCUACACAUCGUAUGUACCGAAUCGGGGAAAAAGGAAAAAGGAAAAAGGAAAGUAUUAUGUUACGCCGUUCGGAUCUGCACU", "log2 enrichment": -1.21}
{"Oligonucleotide": "UUGAACAUCUGCAGGAAAAGAGGCGAGAGGGCACUUUGAGAGUGGAUACCUACACUCUAGUGCAGCCUGAGGCAGAAGACCAUGUUGAGA", "log2 enrichment": -0.739}
{"Oligonucleotide": "GCAGGAAGUAAAAACAAAUGGAAAUGCUUCGGAUAGUGGCAGGGGAAAGGGUUGCUAAGGAAAGGGUGGGAUGGGAGUGGGUAAAGAGUU", "log2 enrichment": 0.038}
{"Oligonucleotide": "AGUCCUGUGCUACACAUCGUAUGUACCGAAUCGGGGAAAAAAAGGGGAGGGGAGGGGAAAGUAUUAUGUUACGCCGUUCGGAUCUGCACU", "log2 enrichment": 0.139}
{"Oligonucleotide": "UAACUUUAGAGGAGGAUCUGAUGGAUAUGGCAGUGGACGUGGAUUUGGGUAUGGCUAUAAUGGGUAUGGAGGAGGACCUGGAGGUGGCAA", "log2 enrichment": -0.362}
{"Oligonucleotide": "GUCCUGUGCUACACAUCGUAUGUACCGAAUCGGGGUUUGGGGAAAGGGGAAAAAGGGGAAAGUAUUAUGUUACGCCGUUCGGAUCUGCAC", "log2 enrichment": 0.319}
{"Oligonucleotide": "UGGGAGGCGGAUUUUGUUUAUUUUUUUAGCUCAUUUCCAGGGGUGGGAAUUUUUUUUUAAUAUGUGUCAUGAAUAAAGUUGUUUUUGAAA", "log2 enrichment": 0.556}
{"data": "Sample 2", "target": "PABPC1L2, full length, GST fusion (mouse, UniProt A0ABA7IW68)", "technique": "RNAcompete", "molecule type": "RNA", "matrix": "in vitro", "concentration": "20 nM", "setting": "7-mer, probes averaged, single round", "relative to": "mean of 7-mers", "direction": "higher = stronger binding", "Residues (chain)": "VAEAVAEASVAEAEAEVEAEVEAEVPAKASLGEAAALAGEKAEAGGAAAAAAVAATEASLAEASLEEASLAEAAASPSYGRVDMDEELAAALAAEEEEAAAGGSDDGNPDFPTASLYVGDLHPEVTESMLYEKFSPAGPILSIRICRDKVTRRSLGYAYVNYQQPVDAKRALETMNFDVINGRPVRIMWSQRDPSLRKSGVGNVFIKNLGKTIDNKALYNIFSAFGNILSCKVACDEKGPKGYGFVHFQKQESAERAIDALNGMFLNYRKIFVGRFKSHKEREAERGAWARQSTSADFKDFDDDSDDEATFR"}
{"Oligonucleotide": "AUUUGGG", "7-mer Z-score": -0.0772}
{"Oligonucleotide": "AUUCCGU", "7-mer Z-score": -0.257}
{"Oligonucleotide": "ACGGCGC", "7-mer Z-score": -0.0482}
{"Oligonucleotide": "CGGCGAG", "7-mer Z-score": 0.075}
{"Oligonucleotide": "AGCGUUC", "7-mer Z-score": -0.364}
{"Oligonucleotide": "GACAGGA", "7-mer Z-score": 0.0823}
{"Oligonucleotide": "GCUCAGU", "7-mer Z-score": -0.168}
{"Oligonucleotide": "AAUGCGU", "7-mer Z-score": -0.17}
{"Oligonucleotide": "GGAACUG", "7-mer Z-score": 0.0587}
{"Oligonucleotide": "GUCGGAC", "7-mer Z-score": -0.179}
{"Oligonucleotide": "CGGAGUG", "7-mer Z-score": -0.175}
{"Oligonucleotide": "UGGGUUC", "7-mer Z-score": -0.22}
{"Oligonucleotide": "UAAAGCG", "7-mer Z-score": 0.867}
{"Oligonucleotide": "GGUUUGC", "7-mer Z-score": -0.402}
{"Oligonucleotide": "UGGAUCA", "7-mer Z-score": -0.0917}
{"Oligonucleotide": "AGCCUUA", "7-mer Z-score": -0.267}
{"Oligonucleotide": "AAACAGA", "7-mer Z-score": 3.87}
{"Oligonucleotide": "CGAAAGU", "7-mer Z-score": -0.00652}
{"Oligonucleotide": "CCCUUUU", "7-mer Z-score": 0.128}
{"data": "Sample 3", "target": "Max-binding protein MNT, bHLH-zipper, MAX partner unstated (MNT, Homo sapiens, UniProt Q99583, residues 220-300)", "technique": "protein-binding microarray", "molecule type": "double-stranded DNA, one strand shown", "matrix": "in vitro", "concentration": "not given", "setting": "k-mer, scored over probes, only values ≥0.25", "direction": "higher = stronger binding", "Construct (chain)": "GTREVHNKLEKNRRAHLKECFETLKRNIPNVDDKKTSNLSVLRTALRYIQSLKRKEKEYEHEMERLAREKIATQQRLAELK"}
{"Oligonucleotide": "AACGTGGT", "E-score": 0.45}
{"Oligonucleotide": "AGACCATG", "E-score": 0.31}
{"Oligonucleotide": "ATGCGGTG", "E-score": 0.255}
{"Oligonucleotide": "CACGCCGC", "E-score": 0.391}
{"Oligonucleotide": "GCGTGAAC", "E-score": 0.308}
{"Oligonucleotide": "ACATTGTG", "E-score": 0.262}
{"Oligonucleotide": "CACGCGCC", "E-score": 0.432}
{"Oligonucleotide": "AACGAGGA", "E-score": 0.259}
{"Oligonucleotide": "ACCTCGTG", "E-score": 0.465}
{"Oligonucleotide": "CGTGGTGC", "E-score": 0.405}
{"Oligonucleotide": "CTCCCCAA", "E-score": 0.372}
{"Oligonucleotide": "GCGTTTCC", "E-score": 0.252}
{"Oligonucleotide": "CATGGCAG", "E-score": 0.348}
{"Oligonucleotide": "GGATTAAC", "E-score": 0.262}
{"Oligonucleotide": "ACATGCCT", "E-score": 0.341}
{"Oligonucleotide": "GAGCACAC", "E-score": 0.33}
{"Oligonucleotide": "CCACGAGC", "E-score": 0.36}
{"Oligonucleotide": "GGGCACGA", "E-score": 0.261}
{"Oligonucleotide": "CCCCACGA", "E-score": 0.305}
{"Oligonucleotide": "CATGCACA", "E-score": 0.403}
{"Oligonucleotide": "CGTGTGAG", "E-score": 0.325}
{"Oligonucleotide": "ATGCGGGA", "E-score": 0.27}
{"Oligonucleotide": "CATGCTCA", "E-score": 0.392}
{"Oligonucleotide": "GCCCTCCC", "E-score": 0.26}
{"Oligonucleotide": "ATGCCTCG", "E-score": 0.262}
{"data": "Sample 4", "target": "Sal-like protein 4, full length isoform B (SALL4, Homo sapiens, UniProt Q9UJQ4-2, residues 1-616)", "technique": "universal PBM", "molecule type": "double-stranded DNA, one strand shown", "matrix": "in vitro", "concentration": "not given", "setting": "8-mer, flanks averaged, mean of replicates", "direction": "higher = stronger binding", "Target sequence (chain)": "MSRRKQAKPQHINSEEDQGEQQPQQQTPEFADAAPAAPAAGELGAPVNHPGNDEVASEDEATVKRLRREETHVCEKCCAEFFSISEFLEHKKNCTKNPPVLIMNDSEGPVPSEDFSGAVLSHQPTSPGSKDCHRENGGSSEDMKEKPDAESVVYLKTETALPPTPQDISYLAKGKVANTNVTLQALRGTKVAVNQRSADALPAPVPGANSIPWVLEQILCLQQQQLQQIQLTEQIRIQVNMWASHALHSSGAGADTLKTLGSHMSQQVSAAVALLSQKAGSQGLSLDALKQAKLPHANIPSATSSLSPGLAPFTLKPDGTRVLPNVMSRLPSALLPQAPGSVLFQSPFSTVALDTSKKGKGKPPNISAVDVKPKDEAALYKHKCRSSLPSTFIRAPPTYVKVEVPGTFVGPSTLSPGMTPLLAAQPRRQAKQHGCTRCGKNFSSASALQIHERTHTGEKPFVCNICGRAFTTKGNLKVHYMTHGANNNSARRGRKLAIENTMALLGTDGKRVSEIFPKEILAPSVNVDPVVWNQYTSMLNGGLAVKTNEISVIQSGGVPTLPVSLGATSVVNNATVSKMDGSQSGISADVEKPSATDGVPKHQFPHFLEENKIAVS"}
{"Oligonucleotide": "CACGATTC", "E-score": 0.0187}
{"Oligonucleotide": "AGGCTTCC", "E-score": -0.0459}
{"Oligonucleotide": "TACGCACA", "E-score": 0.0319}
{"Oligonucleotide": "GGAAAACA", "E-score": 0.167}
{"Oligonucleotide": "ACGACTAA", "E-score": -0.0933}
{"Oligonucleotide": "ATCACGCG", "E-score": 0.012}
{"Oligonucleotide": "GATTGAAA", "E-score": 0.242}
{"Oligonucleotide": "GGATTTAA", "E-score": 0.135}
{"Oligonucleotide": "GCGCCAAC", "E-score": -0.17}
{"Oligonucleotide": "AGCGGCGA", "E-score": -0.172}
{"Oligonucleotide": "CACCAGGG", "E-score": -0.231}
{"Oligonucleotide": "ATATCAGA", "E-score": 0.278}
{"Oligonucleotide": "AAGTTAAA", "E-score": 0.208}
{"Oligonucleotide": "ACTTGGTC", "E-score": -0.0931}
{"Oligonucleotide": "TATCCCCA", "E-score": 0.12}
{"Oligonucleotide": "CCGTCGCG", "E-score": -0.314}
{"Oligonucleotide": "CATACCGG", "E-score": -0.104}
{"Oligonucleotide": "ACTTTGCA", "E-score": 0.0842}
{"Oligonucleotide": "AGCCTTCA", "E-score": -0.0176}
{"Oligonucleotide": "CTGCGCTA", "E-score": -0.189}
{"Oligonucleotide": "GCATTTGA", "E-score": 0.0889}
{"Oligonucleotide": "ATAGAGAG", "E-score": 0.0274}
{"Oligonucleotide": "GTGTTAGA", "E-score": 0.102}
{"Oligonucleotide": "GCTCAGGA", "E-score": -0.0984}
{"Oligonucleotide": "GTCACGGA", "E-score": -0.171}
{"data": "Sample 5", "Sequence": "KLWDINAHITCRLCSGYLIDATTVTECLHTFCRSCLVKYLEENNTCPTCRIVIHQSHPLQ (PCGF3 RING domain (UniProt Q3KNV8))", "technique": "yeast two-hybrid", "matrix": "yeast", "setting": "mostly zero background", "relative to": "not given", "direction": "higher = stronger interaction"}
{"target": "UBE2G1 UBC core domain (UniProt P62253)", "lacZ reporter activity": 0}
{"target": "UBE2C UBC core domain (UniProt O00762)", "lacZ reporter activity": 0}
{"target": "UBE2B UBC core domain (UniProt P63146)", "lacZ reporter activity": 0}
{"target": "UBE2L3 UBC core domain (UniProt P68036)", "lacZ reporter activity": 0}
{"target": "UBE2E3 UBC core domain (UniProt Q969T4)", "lacZ reporter activity": 0}
{"target": "UBE2Q1 UBC core domain (UniProt Q7Z7E8)", "lacZ reporter activity": 0}
{"target": "UBE2M UBC core domain (UniProt P61081)", "lacZ reporter activity": 0}
{"target": "UBE2J1 UBC core domain (UniProt Q9Y385)", "lacZ reporter activity": 0}
{"target": "UBE2O UBC core domain (UniProt Q9C0C9)", "lacZ reporter activity": 0}
{"target": "BIRC6 UBC core domain (UniProt Q9NR09)", "lacZ reporter activity": 0}
{"target": "UBE2I UBC core domain (UniProt P63279)", "lacZ reporter activity": 0}
{"target": "UBE2Z UBC core domain (UniProt Q9H832)", "lacZ reporter activity": 0}
{"target": "UBE2R2 UBC core domain (UniProt Q712K3)", "lacZ reporter activity": 0}
{"target": "UBE2D1 UBC core domain (UniProt P51668)", "lacZ reporter activity": 0}
{"target": "UBE2T UBC core domain (UniProt Q9NPD8)", "lacZ reporter activity": 0}
{"target": "UBE2J2 UBC core domain (UniProt Q8N2K1)", "lacZ reporter activity": 0}
{"note": "Excerpt of the above (sample 2):"}
{"Oligonucleotide": "AUUCCGU", "7-mer Z-score": -0.257}
{"Oligonucleotide": "ACGGCGC", "7-mer Z-score": -0.0482}
{"Oligonucleotide": "CGGCGAG", "7-mer Z-score": 0.075}
{"Oligonucleotide": "AGCGUUC", "7-mer Z-score": -0.364}
{"Oligonucleotide": "GACAGGA", "7-mer Z-score": 0.0823}
{"Oligonucleotide": "GCUCAGU", "7-mer Z-score": -0.168}
{"Oligonucleotide": "AAUGCGU", "7-mer Z-score": -0.17}
{"Oligonucleotide": "GGAACUG", "7-mer Z-score": 0.0587}
{"Oligonucleotide": "GUCGGAC", "7-mer Z-score": -0.179}
